Measured values of several laboratories.
Lines come from different studies, so protocols differ. ± marks the error that the study gave. Where no end group is shown, it is not given here. [ ]: non-standard residue; d: D form.
B1: hsaD (Mycobacterium tuberculosis, UniProt P9WNH5); chain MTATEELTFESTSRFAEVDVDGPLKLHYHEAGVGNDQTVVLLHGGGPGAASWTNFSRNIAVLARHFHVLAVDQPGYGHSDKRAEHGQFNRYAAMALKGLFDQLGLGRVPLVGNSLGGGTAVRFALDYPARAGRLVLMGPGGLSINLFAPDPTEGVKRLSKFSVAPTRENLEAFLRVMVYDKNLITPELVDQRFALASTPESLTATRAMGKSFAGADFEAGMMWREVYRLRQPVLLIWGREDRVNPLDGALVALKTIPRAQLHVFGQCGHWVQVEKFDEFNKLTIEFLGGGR
B2: IgG1 antibody IgG1 (Homo sapiens); V domains shown; VH QVQLVQSGAQLKKPGESLKISCKGSGYNFSRYWIAWVRHMPGKGLEVMGIIYPDDSDTRYSPSVRGQVTISADKSTSIVYLQWSSLKASDTGIYYCARFGAGMTGMPRYFDTTRWFDPWGQGTQVTVSS; VL DQSVLTQPPSVSGAPGQRVTISCLGGSSNIGAGYDVHWYQHLPGAAPKLLISGNSNRPSGVPARFSGSKSGTSASLAITGLQAEDEADYYCQSYDNDLSQVFGGGTKLTVL
B3: CCL1 (Homo sapiens, UniProt P22362); chain KSMQVPFSRCCFSFAEQEIPLRAILCYRNTSSICSNEGLIFKLKRGKEACALDTVGWVQRHRKMLRHCPSKRK
B4: carD (Mycobacterium tuberculosis, UniProt P9WJG3); chain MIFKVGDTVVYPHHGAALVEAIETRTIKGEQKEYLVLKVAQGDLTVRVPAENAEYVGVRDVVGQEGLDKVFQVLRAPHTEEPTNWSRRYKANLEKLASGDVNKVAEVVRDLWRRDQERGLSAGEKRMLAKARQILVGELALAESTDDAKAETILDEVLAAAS
B5: VP35 1-215 (Zaire ebolavirus, UniProt Q05127); chain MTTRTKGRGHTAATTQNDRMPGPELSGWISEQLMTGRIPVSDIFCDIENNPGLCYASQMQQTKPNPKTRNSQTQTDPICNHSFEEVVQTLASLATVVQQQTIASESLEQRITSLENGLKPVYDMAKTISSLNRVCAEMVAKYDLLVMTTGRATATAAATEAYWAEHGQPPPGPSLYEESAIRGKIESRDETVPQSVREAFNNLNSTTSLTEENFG
B6: HBx 1-120 R26C/C61A/C69A (Hepatitis B virus, UniProt P03165); sequence looked up; chain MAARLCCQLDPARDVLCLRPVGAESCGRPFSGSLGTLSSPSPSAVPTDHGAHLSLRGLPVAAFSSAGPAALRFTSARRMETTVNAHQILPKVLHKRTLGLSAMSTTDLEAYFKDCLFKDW
B7: YWHAE (Homo sapiens, UniProt P62258-1); chain MDDREDLVYQAKLAEQAERYDEMVESMKKVAGMDVELTVEERNLLSVAYKNVIGARRASWRIISSIEQKEENKGGEDKLKMIREYRQMVETELKLICCDILDVLDKHLIPAANTGESKVFYYKMKGDYHRYLAEFATGNDRKEAAENSLVAYKAASDIAMTELPPTHPIRLGLALNFSVFYYEILNSPDRACRLAKAAFDDAIAELDTLSEESYKDSTLIMQLLRDNLTLWTSDMQGDGEEQNKEALQDVEDENQ
UniProt Q9Y657, sequence (whole entry, unmodified, looked up): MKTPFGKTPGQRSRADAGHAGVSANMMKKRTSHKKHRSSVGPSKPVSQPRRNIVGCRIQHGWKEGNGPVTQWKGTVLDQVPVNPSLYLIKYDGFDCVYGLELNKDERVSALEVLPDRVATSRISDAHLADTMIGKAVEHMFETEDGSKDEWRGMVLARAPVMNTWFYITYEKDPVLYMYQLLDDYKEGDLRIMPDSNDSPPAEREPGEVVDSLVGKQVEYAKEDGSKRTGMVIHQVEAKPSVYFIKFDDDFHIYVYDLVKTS
UniProt Q96AX9, sequence (whole entry, looked up): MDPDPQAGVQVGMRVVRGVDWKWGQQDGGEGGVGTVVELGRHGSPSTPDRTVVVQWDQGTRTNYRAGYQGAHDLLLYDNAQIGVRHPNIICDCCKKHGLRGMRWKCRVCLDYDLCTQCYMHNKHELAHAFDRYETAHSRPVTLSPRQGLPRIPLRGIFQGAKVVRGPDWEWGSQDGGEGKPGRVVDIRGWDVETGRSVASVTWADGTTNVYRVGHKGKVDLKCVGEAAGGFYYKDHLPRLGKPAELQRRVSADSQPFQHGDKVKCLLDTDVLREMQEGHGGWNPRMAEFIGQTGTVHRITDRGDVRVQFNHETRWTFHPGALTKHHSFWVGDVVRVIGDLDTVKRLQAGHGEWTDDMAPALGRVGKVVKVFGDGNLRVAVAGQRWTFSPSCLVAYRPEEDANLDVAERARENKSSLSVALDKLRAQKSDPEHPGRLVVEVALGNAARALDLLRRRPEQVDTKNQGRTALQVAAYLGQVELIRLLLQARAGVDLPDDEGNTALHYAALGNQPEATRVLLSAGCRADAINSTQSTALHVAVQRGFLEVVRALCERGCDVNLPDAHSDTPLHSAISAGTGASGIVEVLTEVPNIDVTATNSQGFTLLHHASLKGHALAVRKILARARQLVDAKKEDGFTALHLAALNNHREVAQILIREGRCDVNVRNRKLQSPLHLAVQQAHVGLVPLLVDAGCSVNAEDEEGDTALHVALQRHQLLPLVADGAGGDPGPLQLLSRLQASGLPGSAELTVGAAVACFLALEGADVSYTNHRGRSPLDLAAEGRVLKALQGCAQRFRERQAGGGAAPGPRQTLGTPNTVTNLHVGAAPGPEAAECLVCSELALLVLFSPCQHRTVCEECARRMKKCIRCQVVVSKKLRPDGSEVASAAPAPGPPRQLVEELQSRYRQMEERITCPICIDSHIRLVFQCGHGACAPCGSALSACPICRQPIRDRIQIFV

Molecule	target or system	test	system	conditions	quantity	value
B1 (hsaD)	C/C(=C\C=C(/O)C(=O)O)C(=O)CC[C@@H]1C(=O)CC[C@]2(C)C(=O)CC[C@@H]12	steady-state kinetics		pH 7.5, 25 °C	Km	34 µM
nitroalkane oxidase (Fusarium oxysporum, UniProt Q8X1D8)	CCCCCC[N+](=O)[O-]	steady-state kinetics		pH 8, 30 °C, added: O2	Km	40 µM
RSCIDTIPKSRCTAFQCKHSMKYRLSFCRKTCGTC (ShK mature tethered (UniProt P29187); C-terminal GPI anchor)	KCNA3 (Homo sapiens, UniProt P22001-1)	channel current block, two-electrode voltage clamp			koff	0.012 s⁻¹
B2 (IgG1 antibody IgG1)	S receptor-binding domain (SARS-CoV)	pseudovirus neutralisation, neutraliser	antibody, Vero		IC50	0.07 µg/mL
SARS-CoV spike RBD fragment (SARS-CoV) (sequence not shown)	ACE2 fragment (Homo sapiens)	SPR			Kd	0.0665 µM
B3 (CCL1)	ORF74 whole (human herpesvirus 8, UniProt Q98146)	competition with anti-ORF74 antibody binding, flow cytometry	HEK293A.ORF74		pIC50	6.46
cyanovirin-N homolog fragment (sequence not shown)	gp120 (HIV-1)	binding to gp120, ELISA			EC50	0.0153 µM
B4 (carD)	rpoB 47-433 (Mycobacterium tuberculosis, UniProt P9WGY9)	DSF			melting temperature	39.2 ± 0.1 °C
DKRTQFWRYFAGN (SLC25A5 residues 104-116)	Vpr 52-96 (HIV-1, UniProt P69726)	SPR	peptide		Kd	35 µM
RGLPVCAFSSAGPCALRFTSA (HBx 56-76 (Hepatitis B virus, UniProt P03165))	SPIN1 50-262 (Homo sapiens, UniProt Q9Y657)	NMR titration	peptide		binding	binds
MSDNGPQNQRNAPRITFGGPSDSTG (N 1-25 (SARS-CoV-2, UniProt P0DTC9))	G3BP2 fragment (Homo sapiens)	ITC	peptide		Kd	10.9 µM
B5 (VP35 1-215)	MIB2 1-836 (Homo sapiens, UniProt Q96AX9)	ITC			molecule per partner	0.8 ± 0.2
B6 (HBx 1-120 R26C/C61A/C69A)	SPIN1 50-262 C96A/H252F (Homo sapiens, UniProt Q9Y657)	NMR titration			binding	binds
BM2 transmembrane peptide (Influenza B virus)		solid-state NMR, refers to: His19	VM+ membrane pellets	243 K, membrane-bound tetramer, no drug, second protonation	pKa	5.7
nucleocapsid protein N full length (SARS-CoV)	itself	AUC			subunits per oligomer	2
B7 (YWHAE)	NS3 full-length, GST fusion (dengue virus 2, UniProt P14340)	pull-down			binding	binds
SLEV[pT]EAD (RAD9 residues 188-195 (Saccharomyces cerevisiae); phosphothreonine; pT = C[C@@H](OP(=O)(O)O)[C@H](N)C(=O)O)	embR 1-388 (Mycobacterium tuberculosis, UniProt P9WGJ9)	BLI	peptide		Kd	1.52 µM
hsaC (Mycobacterium tuberculosis, UniProt P9WNW7)	Cc1ccc(O)c(O)c1CC[C@@H]1C(=O)CC[C@]2(C)[C@@H]([C@H](C)C(=O)SCCNC(=O)CCNC(=O)[C@H](O)C(C)(C)COP(=O)(O)OP(=O)(O)OC[C@H]3O[C@@H](n4cnc5c(N)ncnc54)[C@H](O)[C@@H]3OP(=O)(O)O)CC[C@@H]12	steady-state kinetics		pH 7.5, 25 °C	Km	0.63 µM
DDLDALLADKE	Protein E6 (E6, Bovine papillomavirus type 1, UniProt P06931)	binding, SPR	peptide	pH 6.8, 25 °C, GST-peptide captured, added: MBP-E6 analyte	koff	0.0017 s⁻¹
GGAAATCACCGTATTCGCGGAGGGCGCGCAATGAAAGGCTTCCTCAACTTCTTCGCGCGCTGGGTGGTGCCGGTGCTCGGCCTGCTCGCCCTGAGCCTGATCATCTGGTTCCTCGGCCCGCTGCTGCGCCTGGGCAACTACGAACCGTTGGCCTCGGCGACCAGCCGCTGGGTGCTGATCGTCCTGCTGTTCCTGGTCTGGATCGGCTTCCGCGTGCTGCGCATCGTGCAGGCCCGGCGCAACGCGGCGAAGGTCATGCAGAGTCTCGCCGAG (dsDNA (Pseudomonas aeruginosa))	mvfR fragment (Pseudomonas aeruginosa)	EMSA	double-stranded DNA, one strand shown		binding	binds
LGALS3 fragment (Homo sapiens) (sequence not shown)	S RBD (SARS-CoV-2)	native MS		pH 7.4, ammonium acetate 200 mM, total glycoform signal area	Kd	5.2 ± 0.4 µM
S protein HR2 (mouse hepatitis virus) (sequence not shown)	S HR1 (Murine hepatitis virus A59)	crystal structure			binding	binds

Excerpt of the above:
Molecule	target or system	test	system	conditions	quantity	value
MSDNGPQNQRNAPRITFGGPSDSTG (N 1-25 (SARS-CoV-2, UniProt P0DTC9))	G3BP2 fragment (Homo sapiens)	ITC	peptide		Kd	10.9 µM
B5 (VP35 1-215)	MIB2 1-836 (Homo sapiens, UniProt Q96AX9)	ITC			molecule per partner	0.8 ± 0.2
B6 (HBx 1-120 R26C/C61A/C69A)	SPIN1 50-262 C96A/H252F (Homo sapiens, UniProt Q9Y657)	NMR titration			binding	binds
